Assay results of several laboratories.
Each numbered part is a random draw from the data of one study; scales do not carry over between parts. Positions count from the first letter of the parent shown.

Set 1
Target: Interferon regulatory factor 3, full length, phosphomimetic (IRF3, Homo sapiens, UniProt Q14653, residues 1-427, S386D/S396D/S398D/S402D/T404D/S405D)
UniProt Q14653, sequence (whole entry, unmodified, looked up): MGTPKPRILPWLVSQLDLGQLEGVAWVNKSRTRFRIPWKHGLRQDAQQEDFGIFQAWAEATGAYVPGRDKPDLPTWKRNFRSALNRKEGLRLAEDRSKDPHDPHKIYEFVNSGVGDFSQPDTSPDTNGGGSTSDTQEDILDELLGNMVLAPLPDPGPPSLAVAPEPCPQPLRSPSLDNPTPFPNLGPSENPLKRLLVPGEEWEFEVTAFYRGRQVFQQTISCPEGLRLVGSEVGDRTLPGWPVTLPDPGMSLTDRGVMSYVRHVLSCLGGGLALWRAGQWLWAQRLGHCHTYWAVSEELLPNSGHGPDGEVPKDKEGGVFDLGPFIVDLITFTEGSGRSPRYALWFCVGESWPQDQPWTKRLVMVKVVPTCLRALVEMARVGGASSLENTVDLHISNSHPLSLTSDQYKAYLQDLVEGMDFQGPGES
Technique: protein-binding microarray
Molecule type: double-stranded DNA, one strand shown
Matrix: in vitro
Tested at: 2540 nM top
Notes: 60-bp whole probe
With: salmon DNA 0.4 mg/ml
Relative to: random background probes
Reading: higher = stronger binding
Endpoint: fitted relative affinity
Shared flanks, not repeated: GCCTAGCAC … GTCTTGATTCGCTTGACGCTGCTG
TTTTTTTTTTTTTTACTTCGGTGCTAG: 1.65 z-score
GACGAACTGGGTACTGGAGACGTGCTA: -0.432 z-score
GACGGTTTCCTTATCCTGCCGTGCTAG: 7.87 z-score
TTAGGTCTCGGTCACGGTTAGTGCTAG: -0.388 z-score
GACGGACTACTTCTCCTGACGTGCTAG: 0.416 z-score
TTAGTTATCGGTATCGGTTAGTGCTAG: 3.74 z-score
GACGATATCAGTACCGAGACGTGCTAG: 0.57 z-score
CTGAGGCTGCCGTGGCCATGGTGCTAG: -1.25 z-score

Set 2
Target: CCNA1, cyclin fold, Cln2 fusion (human)
Technique: yeast growth competition, sequencing
Matrix: yeast
Notes: strong parent motif
Relative to: not given
Reading: higher = stronger binding
Endpoint: normalised enrichment score
Parent: viral docking peptide; YKVKRRLVFGADD
D12T: 1.24
G10Q: 1.39
F9L: 0.882
G10D: 1.67
L7V: 0.0562
K4C: 0.524
A11G: 1.11
L7P: 0.188
V3I: 1.18
R5K: 1
L7I: 0.79
L7F: 0.414
R5W: -0.332
F9K: 0.289
G10H: 1.31
K4D: 0.448
V8Q: 1.21
D12Q: 1.3
L7Y: 0.144
V3G: 0.25
D12S: 0.679
D12W: 0.401
K2M: 1.5
L7W: 0.256
K4S: 0.911

Set 3
Target: RNA binding protein fox-1 homolog 2, RRM domain, GST-SBP tag (RBFOX2, Homo sapiens, UniProt O43251-10, residues 100-194)
Technique: RNA Bind-n-Seq
Molecule type: RNA
Matrix: in vitro
Tested at: 365 nM
Notes: natural RNA segment, single round, ends assumed
Relative to: no-protein control
Reading: higher = stronger binding
Endpoint: RBNS enrichment (R)
Shared flanks, not repeated: GGGAGUUCUACAGUCCGACGAUC … UGGAAUUCUCGGGUGCCAA
Target sequence (chain): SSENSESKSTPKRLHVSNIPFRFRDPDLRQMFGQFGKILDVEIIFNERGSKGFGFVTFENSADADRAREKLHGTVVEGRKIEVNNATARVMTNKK
UUUUUCUUUUGUAAAGGCAAUGAGCUAGUCCCAGAAAGGAUCCUUCAGUUACAUACAAUUUGUUUAAUGAAAUGUCAUGGCUCUGUUCAUAUUUUUGUCUUGUUCUUCCA: 0.437
ACAGUUCUCUCUGGAGGCUUUGUGGGAUUGGGAGAGCUGCUACAGAGGAGUACCAUGAAAGCACUGAGGAAACAUUUCUUCAUCGUGUUACACUGACAACCCACAUCUUG: 0.199
AAGGAUCAUCCUACUGCUAAGUCCGUGUCUCUUCUUGCUUCUAGUGUUUUGGCCACGCCUCACCAAAUGUCUGUAAUGACCCAGUACUCACAACAUGUUCAGGAGGAGCU: 0.268
UUUUUACUUUUUUAAUGUAAGUCUCAGUCUUUGUAAUUAAUUAUUGAAUUGUGAGAACAUUUUUGAACAAUUUACCUGUCAAUAAAGCAGAAGACGGCAGUUUUAAAGUU: 0.385
ACAGAGAGGAUGGGGCUCCCCGAGUAGUGGGAGUUCUUUUGUGGCCUGUGCUGGGGGUAGGGAGCCAACAGCACCCGUUUGUACAUAAAGGUCAUUCGUAUGUCACAUGU: 0.605
UUCAUAAUAUACAGGGGCAGCUGCCAAAUUGAUGUAUUAUAAUAUUGUGGUUUCUGUUUCUUGAGAAAAAUUUUUUGUUAUUUUUACAUCUAACAGAGGAAAAAAAAUUU: 0.7
GCUUUUGGAUCAUUUCGGGCCAGUAGGACCAUGGGCAGAGCUCCUUAACACUGCUGUGGUAAAUCCACGGUCCAAGCCCAGGCGGGCUGAGAAGAGAGAUGGCCUGAGCA: 0.547
UGGAUAUGCCUAUGUCACACUGUCACUCAGUGUGUGGAACUUUCUCUUUAAAGGUGUAACAUCUUAAAUUUGGUGAUGAAUAGUGACAACCAAAAGACUAGAUUGUGCCU: 0.344

Set 4
Target: Protein C-ets-1, full length (ETS1, Homo sapiens, UniProt P14921, residues 1-441)
Technique: protein-binding microarray
Molecule type: hairpin DNA
Matrix: in vitro
Tested at: not given
Notes: whole hairpin DNA, median over replicate spots
Relative to: not given
Reading: higher = stronger binding
Endpoint: median fluorescence
Shared flanks, not repeated: GAGGCCA … TGGCCTCACACTC
Construct (chain): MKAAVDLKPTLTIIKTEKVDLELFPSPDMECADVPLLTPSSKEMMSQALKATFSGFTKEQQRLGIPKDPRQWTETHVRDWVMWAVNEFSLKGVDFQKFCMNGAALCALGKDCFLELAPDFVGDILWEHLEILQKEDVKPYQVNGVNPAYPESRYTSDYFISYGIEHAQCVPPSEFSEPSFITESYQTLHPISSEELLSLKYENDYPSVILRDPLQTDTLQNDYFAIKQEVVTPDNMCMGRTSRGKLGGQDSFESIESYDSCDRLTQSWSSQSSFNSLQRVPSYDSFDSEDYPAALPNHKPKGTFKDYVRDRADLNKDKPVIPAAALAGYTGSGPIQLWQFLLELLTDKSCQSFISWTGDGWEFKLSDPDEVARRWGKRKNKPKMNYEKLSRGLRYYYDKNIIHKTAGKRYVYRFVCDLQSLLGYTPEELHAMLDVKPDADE
GCAGGAAGTTGCCTCCTGGCAACTTCCTGC: 5520 a.u.
GTCCGAAGTTGCCTCCTGGCAACTTCGGAC (5mC at 33): 512 a.u.
GTCGGAAGTTGCCTCCTGGCAACTTCCGAC (5mC at 37): 3220 a.u.
GTCGGAAGTGGCCTCCTGGCCACTTCCGAC (5mC at 28): 3700 a.u.
GTCGGACGTTGCCTCCTGGCAACGTCCGAC: 738 a.u.
GTCGGAAGCGGCCTCCTGGCCGCTTCCGAC (5mC at 16): 1470 a.u.
GTCGGAACGTGCCTCCTGGCACGTTCCGAC (5mC at 29): 584 a.u.
ACCGGAAGTTGCCTCCTGGCAACTTCCGGT: 12600 a.u.

Single results of other studies
Parent: PafA, mature enzyme, eGFP fusion (Elizabethkingia meningoseptica, UniProt Q9KJX5); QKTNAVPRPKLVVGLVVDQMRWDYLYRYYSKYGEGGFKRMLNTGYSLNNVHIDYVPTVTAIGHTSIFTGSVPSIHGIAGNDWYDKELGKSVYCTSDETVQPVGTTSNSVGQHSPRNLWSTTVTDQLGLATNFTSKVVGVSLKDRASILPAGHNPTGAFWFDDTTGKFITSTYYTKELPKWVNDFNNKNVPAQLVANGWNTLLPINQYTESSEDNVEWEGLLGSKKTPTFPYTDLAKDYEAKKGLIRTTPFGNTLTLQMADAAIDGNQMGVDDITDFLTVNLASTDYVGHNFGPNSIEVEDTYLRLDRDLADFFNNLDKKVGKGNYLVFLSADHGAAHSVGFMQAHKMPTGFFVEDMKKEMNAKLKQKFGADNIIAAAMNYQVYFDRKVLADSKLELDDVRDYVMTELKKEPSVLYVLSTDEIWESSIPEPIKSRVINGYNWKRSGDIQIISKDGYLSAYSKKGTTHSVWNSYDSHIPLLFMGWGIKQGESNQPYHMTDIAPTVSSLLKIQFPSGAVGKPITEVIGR
V327G
oxyanion analog dissociation constant (vanadate, free oxyanion; microfluidic competitive inhibition; in vitro, cell-free expressed; not given, derived from inhibition constants, unchanged parent 676 nM; lower = stronger binding): 477 nM

Excerpt of the above (set 2):
G10Q: 1.39
K2M: 1.5
V3I: 1.18
V3G: 0.25
